Assay results gathered from unrelated publications.
Numbered parts are unrelated; each lists some results of a single study. Positions count from the first letter of the parent shown.

Series 1 — target: CCNB3, cyclin fold, Cln2 fusion (human); method: yeast growth competition, sequencing; medium: yeast; setting: weak parent motif; reference: not given; reading: higher = stronger binding
Starting sequence: CCP110 docking peptide (human); EKVKRRLDLDIDG; partner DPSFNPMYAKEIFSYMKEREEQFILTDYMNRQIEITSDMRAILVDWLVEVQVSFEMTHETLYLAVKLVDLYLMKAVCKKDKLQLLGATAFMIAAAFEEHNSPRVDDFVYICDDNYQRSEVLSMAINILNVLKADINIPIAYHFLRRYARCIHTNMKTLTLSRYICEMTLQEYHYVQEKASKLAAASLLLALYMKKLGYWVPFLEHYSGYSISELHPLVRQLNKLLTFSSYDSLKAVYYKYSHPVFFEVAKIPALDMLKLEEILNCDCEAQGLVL
`EKVKRRLDADIDG [L9A]`: “normalised enrichment score” -0.0943.
`EKAKRRLDLDIDG [V3A]`: “normalised enrichment score” 0.138.
For `EAVKRRLDLDIDG [K2A]`, “normalised enrichment score” read 0.434.
`EKVKARLDLDIDG [R5A]`: “normalised enrichment score” 0.212.
`EKVKRALDLDIDG [R6A]`: “normalised enrichment score” 0.107.
Under “normalised enrichment score”, `EKVKRRLDLDIAG [D12A]` is recorded as 0.514.
`EKVKRRLDFDIDG [L9F]`: “normalised enrichment score” 2.53.

Series 2 — method: Sort-seq; refers to: YFP reporter; medium: E. coli; setting: PhoQ-PhoP variant library; with: 10 µM Mg2+; reference: high Mg2+ state; reading: higher = stronger signaling
Molecule: PhoQ, residues 284 288 289 292 302 303 SSTLLI
The fold induction was 1.18 (PhoP, residues 12 14 15 18 19 TPWTL (Escherichia coli, UniProt P23836)).
PhoP, residues 12 14 15 18 19 LHHYF (Escherichia coli, UniProt P23836) — fold induction: 11.4.
It gave 3.25 for fold induction (PhoP, residues 12 14 15 18 19 VGHWL (Escherichia coli, UniProt P23836)).
It gave 8.58 for fold induction (PhoP, residues 12 14 15 18 19 NFFVT (Escherichia coli, UniProt P23836)).

Series 3 — method: RNAcompete; molecule type: RNA; medium: in vitro; concentration: 20 nM; setting: 7-mer, probes averaged, single round; reference: mean of 7-mers; reading: higher = stronger binding
Target: PABPC1L2, full length, GST fusion (mouse, UniProt A0ABA7IW68)
Construct (chain): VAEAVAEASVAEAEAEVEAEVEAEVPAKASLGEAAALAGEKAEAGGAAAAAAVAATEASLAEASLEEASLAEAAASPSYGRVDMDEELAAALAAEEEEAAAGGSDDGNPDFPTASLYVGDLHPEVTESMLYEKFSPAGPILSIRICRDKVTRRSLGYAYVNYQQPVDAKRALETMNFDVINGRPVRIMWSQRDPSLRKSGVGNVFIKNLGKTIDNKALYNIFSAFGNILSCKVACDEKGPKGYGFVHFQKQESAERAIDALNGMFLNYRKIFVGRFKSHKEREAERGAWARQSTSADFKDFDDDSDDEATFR
`GUAUAAA` gave a 7-mer Z-score of 2.6.
For `GUUCGCC`, the 7-mer Z-score was -0.402.
The 7-mer Z-score of `UCGCUAA` is reported as -0.209.
`UUCGAUU` has a 7-mer Z-score of -0.193.
For `UUUUGGU`, the 7-mer Z-score was -0.224.
`AGCUGUG` gave a 7-mer Z-score of -0.184.
The 7-mer Z-score of `AAUAUUA` is reported as 0.383.
The 7-mer Z-score of `GAGACCU` is reported as -0.0373.
`GGCCAGC` has a 7-mer Z-score of -0.0699.
`GCUGAAC` has a 7-mer Z-score of -0.133.
The 7-mer Z-score of `GAUCUUG` is reported as -0.257.
With `CUUUCAU` the 7-mer Z-score was -0.307.
`UCAGGGA` gave a 7-mer Z-score of 0.289.
`CAGUUGU` has a 7-mer Z-score of -0.338.
`UCCAGCG` has a 7-mer Z-score of -0.168.
With `CGCACCU` the 7-mer Z-score was -0.273.
For `GUAGUUU`, the 7-mer Z-score was -0.454.

Series 4 — method: protein-binding microarray; molecule type: double-stranded DNA, one strand shown; medium: in vitro; concentration: 0.8 µM; setting: whole 60-bp probe, no competitor; reading: higher = stronger binding
Target: Centromere-binding protein 1, full length, N-terminal tag (CBF1, Saccharomyces cerevisiae, UniProt P17106, residues 1-351)
UniProt P17106, sequence (whole entry, looked up): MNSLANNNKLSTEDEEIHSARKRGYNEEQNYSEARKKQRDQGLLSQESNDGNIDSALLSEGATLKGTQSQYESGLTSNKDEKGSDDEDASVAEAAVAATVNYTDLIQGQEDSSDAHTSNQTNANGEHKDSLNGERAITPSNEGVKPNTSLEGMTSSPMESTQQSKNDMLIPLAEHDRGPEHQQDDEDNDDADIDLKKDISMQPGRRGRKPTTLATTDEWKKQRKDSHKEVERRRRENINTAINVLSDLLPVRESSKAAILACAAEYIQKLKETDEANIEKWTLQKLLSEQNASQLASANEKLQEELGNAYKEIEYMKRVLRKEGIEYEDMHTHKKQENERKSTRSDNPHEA
For `CCTAACTACTATATCCATCACGTATAGCTTCGTACAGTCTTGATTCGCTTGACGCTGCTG`, the fluorescence intensity was 602 a.u.
`CTACTGAAATCAATCTTCGTGCACCCAGAGAAGTTCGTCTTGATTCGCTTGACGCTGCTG` has a fluorescence intensity of 548 a.u.
`CTAGGAATAAATATACTGGTGATTGTTTATGAATTCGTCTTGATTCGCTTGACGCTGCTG` gave a fluorescence intensity of 530 a.u.
For `CCTAACTACTATAGGGGTCACGTATAGCTTCGTACAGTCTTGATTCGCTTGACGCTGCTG`, the fluorescence intensity was 848 a.u.
`GAATTTCATCGCCTTCACCCCACCCATTTGCATTAGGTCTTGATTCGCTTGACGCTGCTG` has a fluorescence intensity of 532 a.u.
The fluorescence intensity of `GAATTTTTAGGATATCCGTCACCCGTGATTCCGTAGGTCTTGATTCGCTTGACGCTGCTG` is reported as 1420 a.u.
`GAACTATGAACTTATCACGAAGAACGGAGATGTTAGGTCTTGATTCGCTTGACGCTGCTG` gave a fluorescence intensity of 520 a.u.
`CTATGCAACTCTCTAATGGTGATGACTTATTGATTCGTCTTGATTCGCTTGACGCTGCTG` has a fluorescence intensity of 545 a.u.
For `TGTACGAAGCTATTCAGCGTGGTTATAGTAGTTAGGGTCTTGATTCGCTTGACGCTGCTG`, the fluorescence intensity was 528 a.u.
`GAACTATTTCATCGTGCTCACGTGGTTTCATTATAGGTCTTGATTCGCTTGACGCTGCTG` has a fluorescence intensity of 8640 a.u.
With `GAAGAGCACTACCATGACGTCATTAACGTAAAATAGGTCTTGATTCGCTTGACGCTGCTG` the fluorescence intensity was 550 a.u.
`CTACCCCCTATCTCCCACATGTTGGCATCTGTGTTCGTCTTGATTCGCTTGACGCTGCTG` has a fluorescence intensity of 523 a.u.
With `GAAATTGAACAACACCACGCAGTCTAGTAATGTTAGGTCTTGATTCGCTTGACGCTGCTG` the fluorescence intensity was 514 a.u.
For `CTATCTGTGGCTTCCCACGTTGTGTTAGCATTATTCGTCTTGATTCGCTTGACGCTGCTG`, the fluorescence intensity was 536 a.u.
For `GAAAACATTTCGTATTTCGTGATAATAGTTTCTTAGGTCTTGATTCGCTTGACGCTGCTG`, the fluorescence intensity was 527 a.u.
For `CTAGAAAAGTATTACATCAGCACGAGTAACAACTTCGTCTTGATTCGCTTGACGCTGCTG`, the fluorescence intensity was 624 a.u.
The fluorescence intensity of `CTATAGAAAGATAGGCACATGCCAATTGTGTGCTTCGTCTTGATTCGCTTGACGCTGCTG` is reported as 758 a.u.
With `CCTAACTACTATAACCTCATGATATAGCTTCGTACAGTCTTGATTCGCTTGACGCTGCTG` the fluorescence intensity was 584 a.u.
For `CTATTAGTTTCAAGGTGACAGGTTATGAAGATATTCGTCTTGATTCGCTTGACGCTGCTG`, the fluorescence intensity was 579 a.u.

Repeated from above (series 4):
`GAACTATTTCATCGTGCTCACGTGGTTTCATTATAGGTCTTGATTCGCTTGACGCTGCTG` has a fluorescence intensity of 8640 a.u.
With `GAAGAGCACTACCATGACGTCATTAACGTAAAATAGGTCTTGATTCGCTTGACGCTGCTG` the fluorescence intensity was 550 a.u.
